# Results collected from several papers.
# Every numbered part comes from another study and shows a few of its results, in no order. Substitutions count along the parent as printed.

# Set 1
# Target: Histone acetyltransferase KAT6A, winged helix 1, GST fusion (KAT6A, Homo sapiens, UniProt Q92794, residues 1-85)
# Method: protein binding microarray
# Molecule type: double-stranded DNA, one strand shown
# Sample: in vitro
# Concentration: not given
# Setting: 8-mer, flanks averaged, mean of 2 arrays, mostly near background
# Reference: not given
# Direction: higher = stronger binding
# Residues (chain): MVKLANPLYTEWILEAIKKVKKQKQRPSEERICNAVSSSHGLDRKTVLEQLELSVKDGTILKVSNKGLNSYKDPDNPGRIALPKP
Oligonucleotide,E-score
AGCGTGGA,0.253
AATAAACT,0.0159
CCGAGCCG,0.389
AACTTGGC,-0.167
AGTCCAAA,-0.208
CTACACGC,-0.00957
AGCGGCGG,0.458
CCCCAGAC,-0.195
ACAATTCG,-0.0345
CGCACTTA,0.127
AGGAAAGG,-0.153
CGGGGGCC,0.299
ACGCTGGC,0.133
AGTATTGG,-0.0779
ACGGGGTA,0.158
CCACGTGG,-0.0862
GGACACCA,-0.224

# Set 2
# Target: Ras GTPase-activating protein-binding protein 1, full length (G3BP1, Homo sapiens, UniProt Q13283)
# UniProt Q13283, sequence (whole entry, looked up): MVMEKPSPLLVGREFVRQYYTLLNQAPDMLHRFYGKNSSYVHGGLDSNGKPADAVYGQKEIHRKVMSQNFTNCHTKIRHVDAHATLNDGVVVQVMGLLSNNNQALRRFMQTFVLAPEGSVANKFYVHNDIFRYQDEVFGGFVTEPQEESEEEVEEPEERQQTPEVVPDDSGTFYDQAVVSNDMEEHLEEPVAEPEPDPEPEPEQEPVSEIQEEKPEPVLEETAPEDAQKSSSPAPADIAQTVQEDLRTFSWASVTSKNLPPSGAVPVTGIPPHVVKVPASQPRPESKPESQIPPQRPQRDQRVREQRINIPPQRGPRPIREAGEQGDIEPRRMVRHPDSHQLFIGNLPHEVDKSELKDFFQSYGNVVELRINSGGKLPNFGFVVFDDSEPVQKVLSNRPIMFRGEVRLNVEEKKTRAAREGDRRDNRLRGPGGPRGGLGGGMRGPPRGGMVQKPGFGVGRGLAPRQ
# Method: RNA Bind-n-Seq
# Molecule type: RNA
# Sample: in vitro
# Concentration: 200 nM
# Setting: whole 134-nt RNA, ends assumed
# With: 150 mM LiCl
# Reference: input library
# Direction: higher = stronger binding
# Each molecule: 7-deaza-guanosine replaces G
# Shared flanks, not repeated: GGGAGUUCUACAGUCCGACGAUC … UGGAAUUCUCGGGUGUCAAGG
Oligonucleotide,log2 enrichment
UAACUUUAGAGGAGGAUCUGAUGGAUAUGGCAGUGGACGUGGAUUUGGGGAUGGCUAUAAUGGGUAUGGAGGAGGACCUGGAGGUUGCAA,0.0196
GUGCUGGCUGGCCACGGUCACCUGUAUUCCCGCAUCCCAGGCCUGCUCAGCCCCCAUCCCCUGCUGCAGCUGAGCUACACGGCCACCGAC,-0.571
ACCAUGCAGGUGGGCAUCUUUGGGUAGUGGGGCAAGGGGGGGAUAGGGAGGGGGGUAACACUUUGGGAACAGGUGGUCCCAGGUCGUUUC,0.102
UAGUCCAGCAUCAAGAUUCGCCGGCCUGGAUACAAAUCAGCGACUUACAGCUUUAGCUGAAGACAGACCGUUAUUUGAUGGACCUAGUAG,-2.35
CCUGUGCUACACAUCGUAUGUACCGAAUCGGGGCCCCCCGGGCCCCCCGGGGCCCCCCGGAAAGUAUUAUGUUACGCCGUUCGGAUCUGC,-1.26
ACCAUGCAGGUGAGCAUCUUUGGGAAGUGGGGCAAGGGGGGGAUAGGGAGGGGGGUAACACUUUGGGAACAGGUGGUCCCAGGUCGUUUC,0.633
UGGCCCUGGUGGGAUGCGGGGAGGAAGAGGUGGCCUCAUGGAUCGUGGUGGUCCCGGUGGAAUGUUCAGAGGUGGCCGUGGUGGAGACAG,0.53
AAGUCCUGUGCUACACAUCGUAUGUACCGAAUCGGGGAAAAGGAAAAGGAAAAGGGAAAGUAUUAUGUUACGCCGUUCGGAUCUGCACUU,-0.292

# Set 3
# Target: CCNB1, cyclin fold, Cln2 fusion (human)
# Method: yeast growth competition, sequencing
# Sample: yeast
# Setting: weak parent motif
# Reference: not given
# Direction: higher = stronger binding
# Starting sequence: KIF20B docking peptide (human); KRAKRKLYTSEIS
Change,normalised enrichment score
KAAKRKLYTSEIS [R2A],0.0906
KRAKRKAYTSEIS [L7A],0.317
KRAKRKLYTAEIS [S10A],-0.0411
KRAKRKLYTSAIS [E11A],0.535
KRAKRKLYTSEAS [I12A],0.232
KRAARKLYTSEIS [K4A],0.42

# Set 4
# Target: RNA binding protein fox-1 homolog 2, RRM domain, GST-SBP tag (RBFOX2, Homo sapiens, UniProt O43251-10, residues 100-194)
# Method: RNA Bind-n-Seq
# Molecule type: RNA
# Sample: in vitro
# Concentration: 365 nM
# Setting: natural RNA segment, single round, ends assumed
# Reference: no-protein control
# Direction: higher = stronger binding
# Shared flanks, not repeated: GGGAGUUCUACAGUCCGACGAUC … UGGAAUUCUCGGGUGCCAA
# Construct (chain): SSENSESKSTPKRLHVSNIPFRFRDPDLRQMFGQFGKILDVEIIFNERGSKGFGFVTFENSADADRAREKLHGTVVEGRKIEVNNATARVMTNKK
Oligonucleotide,RBNS enrichment (R)
AUGCUUAUGUCAGAAUGUGUGGGCUUUGGUUUAAAGGACAUAACCUCUCCGCUUGUGACAAAGUCAUUGUUGCCAUCAGGAUUUCAAGUAAUGGGCGUAUCUCAGGGCUA,0.874
CACAAACUCUGAAGCCAGUGUCUAGCUUACUAAAAAAAGAGUUGUAUAUAAUAUUUAAGAUGCUGAGUAUUUCAUAGGAAAGCUGAAUGCUGCUGUAAAGUGCUCUUUAA,0.845
UCCGUAUAUUCUCCAGCUAAAUGGUCGUCUGGUAGCCUUUGCAUUUAACAAACUAGCAUGAGGCUUUUUAUAUCUAAAUGCUACGUGAUAGACAAUUUCAGCUAGCCACA,5.51
UCAGAAUAAUCCUCACAGUUCUGGAAGAUUGAAAAACCAAGUUCACAUGACAAGAACAAACCCGGUUUUAAGGGUUGAAUGUAGGGGGAUACCAUUCUGUCUUUUAGACU,0.656
UUUUUGUAUCAAAAAUAAAGGUUAUUUUGAAAUUAUUAGGAUUUUUACACAAUUCUGAAAUCUGUUGCUUUUGUAAACAAAUUGUUUGAUCUUAGUGAUCCCCCUACUAC,0.418
UCUGCCUGGAGUCUGAGGGUGACUUGAACUUCUGCCAGUACAUCUGCAACUAGAACCCUGGUCGCCUUCCUCUAACUGGAGGGCAAGCCUUCCUUUUCUAGGGCCAAACU,0.191
CUCCUCUUCUUCCAUCUCCCUCACCCAUGCCCCCACCCAAUCUAAAGAGACAGUGCUGUACAUUCUCAUAGAGAUAGAGAAGAUCUAAAAAGUUGAGACUACUCAAUCCA,0.686
UGCCAAAAAUGUGUUUUCAGAGGAAAUCUUAUUUUCAUAUUCAGACUUUGUAUUGCCCACUCAUUUGUAUAAGUGCGCUUCGGUACAGCACGGGUCCUGCUCCCGCGAUG,0.467

# Set 5
# Substance: PhoQ, residues 284 288 289 292 302 303 SIHLQL
# Method: Sort-seq
# Item: YFP reporter
# Sample: E. coli
# Setting: PhoQ-PhoP variant library
# With: 10 µM Mg2+
# Reference: high Mg2+ state
# Direction: higher = stronger signaling
target,fold induction
"PhoP, residues 12 14 15 18 19 VGHWL (Escherichia coli, UniProt P23836)",1.82
"PhoP, residues 12 14 15 18 19 TPWTL (Escherichia coli, UniProt P23836)",13.9
"PhoP, residues 12 14 15 18 19 NFFVT (Escherichia coli, UniProt P23836)",12.7
"PhoP, residues 12 14 15 18 19 LHHYF (Escherichia coli, UniProt P23836)",4

# Set 6
# Target: ABI1, truncated, D143A, DHFR fusion (Arabidopsis thaliana)
# Method: DHFR PCA, deep sequencing
# Sample: yeast
# Setting: methotrexate growth selection, single substitutions
# With: (+)-ABA 0 µM
# Reference: wild-type fitted maximum
# Direction: higher = stronger binding
# Starting sequence: PYL1, truncated, DHFR fusion (Arabidopsis thaliana); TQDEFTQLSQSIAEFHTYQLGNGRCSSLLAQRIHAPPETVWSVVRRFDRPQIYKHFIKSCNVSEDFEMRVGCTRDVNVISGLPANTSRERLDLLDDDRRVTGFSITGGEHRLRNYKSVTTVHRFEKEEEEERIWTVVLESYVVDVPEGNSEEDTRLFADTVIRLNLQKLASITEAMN; partner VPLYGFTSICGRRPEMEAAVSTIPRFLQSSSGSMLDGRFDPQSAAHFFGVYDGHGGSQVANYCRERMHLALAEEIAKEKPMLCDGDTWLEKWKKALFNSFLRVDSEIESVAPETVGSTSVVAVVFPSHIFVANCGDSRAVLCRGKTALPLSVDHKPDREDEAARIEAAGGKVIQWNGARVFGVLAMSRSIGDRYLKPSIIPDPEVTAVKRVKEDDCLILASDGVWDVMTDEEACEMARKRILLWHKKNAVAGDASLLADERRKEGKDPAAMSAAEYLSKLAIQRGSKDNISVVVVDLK
Change,relative binding score
A30W,15.8%
E109Q,4.46%
R111E,3.12%
C60R,6.49%
T106S,-1.55%
L169I,-3.23%
S59Y,4.25%
E131A,34.5%
R49P,3.44%
K116A,8.08%
Q31L,1.42%
I105G,0.489%
Q167M,19.6%
A35Q,0.851%
L82T,7.39%
V161N,22.8%
T6R,49.1%
S87Q,58.9%
S140C,3.04%
L28P,-0.507%
S59P,0.307%
Y115T,4.98%
D153V,-1.08%
E67G,1.15%
K54L,-2.87%
